Experimental data of several laboratories.
Protocols differ between the studies behind these lines.
ST14: Suppressor of tumorigenicity 14 protein (ST14, Homo sapiens, UniProt Q9Y5Y6)
Chain of UniProt Q9Y5Y6 (whole entry, looked up): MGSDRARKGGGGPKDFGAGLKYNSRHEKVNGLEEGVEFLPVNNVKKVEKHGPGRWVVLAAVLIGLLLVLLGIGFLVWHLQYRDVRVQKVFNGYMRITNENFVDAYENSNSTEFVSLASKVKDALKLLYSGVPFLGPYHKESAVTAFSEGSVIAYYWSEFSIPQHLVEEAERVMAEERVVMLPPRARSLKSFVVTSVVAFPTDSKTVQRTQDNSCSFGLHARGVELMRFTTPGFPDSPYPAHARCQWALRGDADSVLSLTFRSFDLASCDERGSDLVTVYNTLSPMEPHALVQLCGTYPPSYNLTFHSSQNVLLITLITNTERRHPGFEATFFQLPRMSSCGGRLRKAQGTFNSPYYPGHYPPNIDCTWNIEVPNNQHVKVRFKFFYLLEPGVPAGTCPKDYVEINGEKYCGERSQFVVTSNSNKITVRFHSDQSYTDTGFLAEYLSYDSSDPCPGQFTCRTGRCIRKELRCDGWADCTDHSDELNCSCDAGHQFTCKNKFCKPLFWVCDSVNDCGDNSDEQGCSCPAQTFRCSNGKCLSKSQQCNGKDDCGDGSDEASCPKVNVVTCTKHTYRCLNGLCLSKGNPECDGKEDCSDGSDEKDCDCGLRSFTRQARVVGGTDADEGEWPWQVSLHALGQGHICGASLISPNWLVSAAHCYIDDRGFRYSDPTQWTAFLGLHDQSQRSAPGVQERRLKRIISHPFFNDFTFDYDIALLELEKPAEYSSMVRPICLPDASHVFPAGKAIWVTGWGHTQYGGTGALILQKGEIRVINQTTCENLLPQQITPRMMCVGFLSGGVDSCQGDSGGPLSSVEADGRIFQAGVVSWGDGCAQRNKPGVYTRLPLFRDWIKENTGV
CTSL: Procathepsin L (CTSL, Homo sapiens, UniProt P07711)
Chain of UniProt P07711 (whole entry, looked up): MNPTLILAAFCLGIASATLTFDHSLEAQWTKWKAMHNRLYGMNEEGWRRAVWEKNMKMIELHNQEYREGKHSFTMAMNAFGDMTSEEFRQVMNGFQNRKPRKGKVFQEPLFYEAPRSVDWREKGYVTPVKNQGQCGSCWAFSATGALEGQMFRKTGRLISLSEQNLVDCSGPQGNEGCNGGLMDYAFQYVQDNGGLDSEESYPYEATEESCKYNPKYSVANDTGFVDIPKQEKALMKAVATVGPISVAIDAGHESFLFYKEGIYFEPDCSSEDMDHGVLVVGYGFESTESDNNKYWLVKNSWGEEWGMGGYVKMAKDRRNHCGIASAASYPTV
CDK5 with p35: Cyclin-dependent kinase 5, with p35 (CDK5, Homo sapiens, UniProt Q00535)
Chain of UniProt Q00535 (whole entry, looked up): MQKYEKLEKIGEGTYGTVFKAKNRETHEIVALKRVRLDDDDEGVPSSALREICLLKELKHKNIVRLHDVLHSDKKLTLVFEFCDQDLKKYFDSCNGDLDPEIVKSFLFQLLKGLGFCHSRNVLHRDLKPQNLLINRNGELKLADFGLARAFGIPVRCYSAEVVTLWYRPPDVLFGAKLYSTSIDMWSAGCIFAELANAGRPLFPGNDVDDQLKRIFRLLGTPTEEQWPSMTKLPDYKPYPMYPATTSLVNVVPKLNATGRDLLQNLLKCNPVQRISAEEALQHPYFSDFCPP
MPO: Myeloperoxidase (MPO, Homo sapiens, UniProt P05164)
Chain of UniProt P05164 (whole entry, looked up): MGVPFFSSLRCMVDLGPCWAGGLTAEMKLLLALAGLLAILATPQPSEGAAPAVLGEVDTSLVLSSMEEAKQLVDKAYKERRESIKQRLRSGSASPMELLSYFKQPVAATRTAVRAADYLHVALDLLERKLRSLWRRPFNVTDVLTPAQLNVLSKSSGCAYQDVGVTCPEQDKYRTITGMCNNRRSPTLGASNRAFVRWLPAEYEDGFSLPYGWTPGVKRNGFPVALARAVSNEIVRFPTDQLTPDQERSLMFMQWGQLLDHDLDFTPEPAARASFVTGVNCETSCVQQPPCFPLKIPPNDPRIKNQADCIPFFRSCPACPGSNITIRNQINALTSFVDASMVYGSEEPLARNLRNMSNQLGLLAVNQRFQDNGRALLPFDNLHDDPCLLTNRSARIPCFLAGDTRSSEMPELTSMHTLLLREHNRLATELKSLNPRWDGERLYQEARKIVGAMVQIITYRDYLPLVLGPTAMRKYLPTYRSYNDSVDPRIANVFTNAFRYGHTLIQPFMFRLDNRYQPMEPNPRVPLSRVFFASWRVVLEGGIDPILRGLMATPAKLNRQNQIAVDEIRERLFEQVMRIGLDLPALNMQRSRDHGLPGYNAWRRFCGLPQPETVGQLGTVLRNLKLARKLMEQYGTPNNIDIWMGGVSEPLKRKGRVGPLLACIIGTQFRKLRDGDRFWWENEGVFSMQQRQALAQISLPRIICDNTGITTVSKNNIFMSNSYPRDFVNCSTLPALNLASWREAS
Chain of UniProt Q9HC98 (whole entry, looked up): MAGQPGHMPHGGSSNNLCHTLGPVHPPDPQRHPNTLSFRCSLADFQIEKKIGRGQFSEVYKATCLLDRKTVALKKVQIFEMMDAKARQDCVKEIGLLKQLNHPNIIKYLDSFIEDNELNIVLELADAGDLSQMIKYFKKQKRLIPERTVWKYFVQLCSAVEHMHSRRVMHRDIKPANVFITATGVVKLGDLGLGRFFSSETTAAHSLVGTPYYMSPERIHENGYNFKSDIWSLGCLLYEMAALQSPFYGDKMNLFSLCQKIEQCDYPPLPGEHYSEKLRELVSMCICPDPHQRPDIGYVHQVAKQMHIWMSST
Chain of UniProt Q9H4B4 (whole entry, looked up): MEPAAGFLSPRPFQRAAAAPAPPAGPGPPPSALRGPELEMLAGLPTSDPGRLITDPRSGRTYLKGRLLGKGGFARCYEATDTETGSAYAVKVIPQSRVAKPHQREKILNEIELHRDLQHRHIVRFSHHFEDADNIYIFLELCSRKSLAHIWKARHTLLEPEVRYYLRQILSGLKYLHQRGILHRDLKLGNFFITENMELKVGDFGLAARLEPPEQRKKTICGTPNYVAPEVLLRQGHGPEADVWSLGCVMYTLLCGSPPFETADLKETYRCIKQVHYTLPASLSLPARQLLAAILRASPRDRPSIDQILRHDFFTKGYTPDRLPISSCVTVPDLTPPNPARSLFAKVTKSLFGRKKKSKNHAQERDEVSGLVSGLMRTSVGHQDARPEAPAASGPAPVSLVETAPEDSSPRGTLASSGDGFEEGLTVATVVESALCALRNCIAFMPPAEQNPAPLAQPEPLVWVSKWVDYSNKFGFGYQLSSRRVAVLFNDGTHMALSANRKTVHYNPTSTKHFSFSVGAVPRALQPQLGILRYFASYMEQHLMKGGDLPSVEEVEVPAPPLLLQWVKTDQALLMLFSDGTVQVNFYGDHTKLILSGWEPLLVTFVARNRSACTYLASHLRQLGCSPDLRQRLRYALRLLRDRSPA
Chain of UniProt P52333 (whole entry, looked up): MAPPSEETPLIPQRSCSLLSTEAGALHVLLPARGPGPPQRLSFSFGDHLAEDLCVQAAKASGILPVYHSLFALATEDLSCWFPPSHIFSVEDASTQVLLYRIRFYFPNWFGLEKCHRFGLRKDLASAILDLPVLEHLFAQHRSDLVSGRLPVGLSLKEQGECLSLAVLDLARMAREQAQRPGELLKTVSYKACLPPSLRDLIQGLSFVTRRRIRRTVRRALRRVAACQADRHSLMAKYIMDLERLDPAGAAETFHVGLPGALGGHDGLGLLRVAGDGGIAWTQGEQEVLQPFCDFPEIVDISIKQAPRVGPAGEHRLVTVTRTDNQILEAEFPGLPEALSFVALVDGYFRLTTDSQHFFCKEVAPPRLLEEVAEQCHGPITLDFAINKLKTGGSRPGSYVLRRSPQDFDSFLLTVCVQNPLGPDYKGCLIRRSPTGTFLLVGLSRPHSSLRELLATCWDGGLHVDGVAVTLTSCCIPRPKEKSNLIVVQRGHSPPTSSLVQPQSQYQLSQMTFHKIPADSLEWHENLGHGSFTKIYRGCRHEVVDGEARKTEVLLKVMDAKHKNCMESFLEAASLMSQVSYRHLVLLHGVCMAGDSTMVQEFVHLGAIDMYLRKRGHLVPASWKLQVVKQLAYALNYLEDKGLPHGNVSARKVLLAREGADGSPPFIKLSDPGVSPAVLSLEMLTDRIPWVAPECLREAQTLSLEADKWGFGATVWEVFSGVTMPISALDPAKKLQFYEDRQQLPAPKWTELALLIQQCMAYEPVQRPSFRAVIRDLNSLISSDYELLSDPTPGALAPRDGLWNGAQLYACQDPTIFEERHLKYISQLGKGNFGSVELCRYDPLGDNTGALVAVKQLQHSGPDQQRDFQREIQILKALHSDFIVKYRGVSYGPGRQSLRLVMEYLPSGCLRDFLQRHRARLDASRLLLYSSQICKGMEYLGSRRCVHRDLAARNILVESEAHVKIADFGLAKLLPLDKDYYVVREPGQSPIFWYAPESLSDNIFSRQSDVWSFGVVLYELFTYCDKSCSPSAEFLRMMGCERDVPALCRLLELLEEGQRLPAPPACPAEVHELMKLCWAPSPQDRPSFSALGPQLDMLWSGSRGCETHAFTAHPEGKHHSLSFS
Chain of UniProt Q9UEE5 (whole entry, looked up): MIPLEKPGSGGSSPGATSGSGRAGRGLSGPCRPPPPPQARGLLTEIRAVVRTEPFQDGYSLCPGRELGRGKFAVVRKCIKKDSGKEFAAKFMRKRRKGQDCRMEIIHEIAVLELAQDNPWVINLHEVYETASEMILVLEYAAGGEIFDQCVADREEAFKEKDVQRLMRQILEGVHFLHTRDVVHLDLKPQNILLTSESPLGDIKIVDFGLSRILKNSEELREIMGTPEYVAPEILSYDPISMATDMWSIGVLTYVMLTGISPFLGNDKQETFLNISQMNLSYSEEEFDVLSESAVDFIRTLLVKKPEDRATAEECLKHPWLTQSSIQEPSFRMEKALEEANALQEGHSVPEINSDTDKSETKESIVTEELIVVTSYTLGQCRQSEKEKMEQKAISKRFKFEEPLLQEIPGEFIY

For `N=C(N)NCCC[C@H](NC(=O)[C@H](Cc1ccc(I)cc1)NC(=O)[C@H](Cc1cscn1)NC(=O)CCc1ccccc1)C(=O)c1nc2ccccc2s1`, the remaining activity was 96% (ST14; enzyme activity, inhibitor; 0.1 µM).
`N=C1NCC[C@H]([C@@H]2NC(=O)/C(=C/NC(N)=O)NC(=O)[C@H](CNC(=O)CC(N)CCCN)NC(=O)[C@H](CO)NC(=O)[C@@H](N)CNC2=O)N1` (stereo partly shown) has a remaining activity of 77.4% (CTSL; enzyme activity, inhibitor; 100 µM).
The remaining binding of `CCCCC(=O)Nc1ccc(-c2ccc3ncn(CCC)c(=O)c3c2)cn1` is reported as 100% (Serine/threonine-protein kinase TAO1 (TAOK1, Homo sapiens, UniProt Q7L7X3); binding, competition with immobilised ligand; 0.5 µM).
`CC[C@H](C)[C@H](NC(=O)[C@H](CCC(N)=O)NC(=O)[C@H](CC(C)C)NC(=O)[C@H](CCSC)NC(=O)[C@H](CCCCN)NC(=O)[C@H](CO)NC(=O)[C@H](CO)NC(=O)[C@H](CCSC)NC(=O)[C@H](CC(C)C)NC(=O)[C@H](CC(N)=O)NC(=O)[C@@H](NC(=O)[C@@H](NC(=O)[C@H](CO)NC(=O)[C@H](CC(C)C)NC(=O)[C@H](CS)NC(=O)[C@H](CCCNC(=N)N)NC(=O)[C@H](CC(=O)O)NC(=O)[C@H](Cc1c[nH]c2ccccc12)NC(=O)[C@H](Cc1ccccc1)NC(=O)[C@H](C)NC(=O)[C@H](CCC(=O)O)NC(=O)[C@@H](N)CCCCN)C(C)C)[C@@H](C)CC)C(=O)N[C@@H](CC(N)=O)C(=O)N[C@@H](C)C(=O)O` has a remaining activity of 90% (CDK5 with p35; enzyme activity, inhibitor, radiometric; 50 µM, 20 min).
`CNc1ncc2c(/C=C/C(=O)N3CCC(OC)CC3)nn(Cc3cccc(C(F)(F)F)c3)c2n1` gave a remaining activity of 104% (Serine/threonine-protein kinase PLK3 (PLK3, Homo sapiens, UniProt Q9H4B4); enzyme activity, inhibitor, radiometric; 1 µM).
With `NS(=O)(=O)c1ccc(CNc2ccnc(Nc3cccc(CN4CCOCC4)c3)n2)cc1` the remaining activity was 93% (Serine/threonine-protein kinase 17A (STK17A, Homo sapiens, UniProt Q9UEE5); enzyme activity, inhibitor, radiometric; 1 µM).
For `C1=C/COCc2cc(ccc2OCCN2CCCC2)Nc2nccc(n2)-c2cccc(c2)COC/1`, the remaining binding was 61% (Serine/threonine-protein kinase Nek6 (NEK6, Homo sapiens, UniProt Q9HC98); binding; 0.1 µM).
With `CC(C)[C@@H](NC(=O)[C@H](Cc1cscn1)NC(=O)CCc1ccccc1)C(=O)N[C@@H](CCCNC(=N)N)C(=O)c1nc2ccccc2s1` the remaining activity was 89% (ST14; enzyme activity, inhibitor; 0.1 µM).
With `CC(C)=CCc1cc2c(cc1O)oc(=O)c1c3ccc(O)cc3oc21` the remaining activity was 113% (CTSL; enzyme activity, inhibitor; 100 µM).
`N=C(N)NCCC[C@H](NC(=O)[C@H](CC12CC3CC(CC(C3)C1)C2)NC(=O)[C@H](Cc1cscn1)NC(=O)CCc1ccccc1)C(=O)c1nc2ccccc2s1` has a remaining activity of 94% (ST14; enzyme activity, inhibitor; 0.1 µM).
`Cc1cc(NS(=O)(=O)c2ccc(N=NN(C)O)cc2)no1` gave an inhibition of 55% (ABTS scavenging; 300 µg/mL).
For `Oc1ccc(/C=C/c2cc(O)cc(O)c2)cc1`, the remaining activity was 99.1% (CTSL; enzyme activity, inhibitor; 100 µM).
For `COc1cccc(-c2n[nH]c(SCc3ccccn3)n2)c1OC`, the concentration was 4.1 ng/mL (female Sprague-Dawley rat, plasma; oral, 30 mg/kg, 24 h, single dose).
`CC(C)(O)[C@H]1CC[C@H](Nc2ccc3ncc(-c4cccc(C(F)(F)F)c4)n3n2)CC1` has a remaining activity of 96.1% (Mitogen-activated protein kinase 13 (MAPK13, Homo sapiens, UniProt O15264); enzyme activity, inhibitor; 1 µM).
For `C=CC(=O)N1CCC(COCC(=O)N2CCN(c3nc(-c4cnc(N)nc4C(F)F)nc(N4CCOC[C@@H]4C)n3)CC2)CC1`, the remaining binding was 91% (Serine/threonine-protein kinase SIK2 (SIK2, Homo sapiens, UniProt Q9H0K1); binding, competition with immobilised ligand; 1 µM).
`OCc1c[nH]c2ccccc12` gave a remaining activity of 57.1% (CTSL; enzyme activity, inhibitor; 100 µM).
The remaining activity of `NC/C(=C\F)COc1cccc(Cn2c(=S)[nH]c(=O)c3[nH]cnc32)c1` is reported as 9.08% (MPO; enzyme activity, inhibitor; 0.25 µM).
With `O=CC(O)C(O)C(OC1OC(CO)C(OC2OC(CO)C(OC3OC(CO)C(O)C(O)C3O)C(O)C2O)C(O)C1O)C(O)CO` (stereo not shown) the remaining activity was 91.7% (CTSL; enzyme activity, inhibitor; 100 µM).
`Cc1cc([C@@H](C)Nc2ccccc2C(=O)O)c2nc(N3CCC(F)(F)CC3)c(C#N)c(=O)n2c1` gave a remaining binding of 100% (Serine/threonine-protein kinase 32C (STK32C, Homo sapiens, UniProt Q86UX6); binding, competition with immobilised ligand; 10 µM).
For `Cc1ccc(N(O)N=Nc2ccc(S(=O)(=O)Nc3cc(C)on3)cc2)cc1`, the inhibition was 57.2% (ABTS scavenging; 300 µg/mL).
The remaining activity of `COc1ccc(Cl)cc1-c1cc(=O)[nH]c(=S)n1CC(N)=O` is reported as 105% (MPO; enzyme activity, inhibitor; 0.156 µM).
With `COc1cc(-c2cncc3c2CN(C)Cc2cc(N4CCNCC4)ccc2-3)cc(OC)c1OC` the remaining activity was 105% (Tyrosine-protein kinase JAK3 (JAK3, Homo sapiens, UniProt P52333); enzyme activity, inhibitor; 1 µM).
The remaining activity of `CC(C)OCCn1c(=S)[nH]c(=O)c2[nH]ccc21` is reported as 17.9% (MPO; enzyme activity, inhibitor; 2.5 µM).
For `Nc1ccn([C@@H]2O[C@H](CO)[C@@H](O)C2(F)F)c(=O)n1`, the viability was 75.1% (MDA-MB-231; cell growth or viability, MTT; 2.5 µg/mL, 24 h).
With `CC[C@H](C)[C@H](NC(=O)[C@H](CCC(N)=O)NC(=O)[C@@H](NC(=O)[C@H](CCSC)NC(=O)[C@H](CCCCN)NC(=O)[C@H](CO)NC(=O)[C@@H](NC(=O)[C@H](CCSC)NC(=O)[C@H](CC(C)C)NC(=O)[C@H](CC(N)=O)NC(=O)[C@@H](NC(=O)[C@@H](NC(=O)[C@H](CO)NC(=O)[C@H](CC(C)C)NC(=O)[C@H](C)NC(=O)[C@H](CCCNC(=N)N)NC(=O)[C@H](CCC(=O)O)NC(=O)[C@H](Cc1ccc(O)cc1)NC(=O)[C@H](Cc1ccccc1)NC(=O)[C@H](C)NC(=O)[C@H](CC(N)=O)NC(=O)[C@@H](N)CCCCN)[C@@H](C)CC)[C@@H](C)CC)[C@@H](C)O)C(C)C)C(=O)N[C@@H](CC(N)=O)C(=O)N[C@H](C(=O)O)C(C)C` the remaining activity was 16% (CDK5 with p35; enzyme activity, inhibitor, radiometric; 500 µM, 20 min).
For `CC(/C=C/C=C(\C)C(=O)OC1OC(CO)C(O)C(O)C1O)=C\C=C\C=C(C)\C=C\C=C(/C)C(=O)OC1OC(COC2OC(CO)C(O)C(O)C2O)C(O)C(O)C1O` (stereo not shown), the remaining activity was 60.6% (CTSL; enzyme activity, inhibitor; 100 µM).
For `C=CC[C@H](NC(=O)[C@H](Cc1cscn1)NC(=O)CCc1ccccc1)C(=O)N[C@@H](CCCNC(=N)N)C(=O)c1nc2ccccc2s1`, the remaining activity was 33% (Transmembrane protease serine 6 (Homo sapiens, UniProt Q8IU80); enzyme activity, inhibitor; 0.1 µM).
The remaining signal of `Nc1ncnc2occ(-c3ccc(NC(=O)Nc4cc(C(F)(F)F)ccc4F)cc3)c12` is reported as 0% (Mast/stem cell growth factor receptor Kit (KIT, Homo sapiens, UniProt P10721, L576P); cell-free assay, inhibitor; 20 µM).
